Measured values collected from several papers.
Compare with care: the assays were run in different laboratories. ± marks the error that the study gave.
BIRC3 BIR3: Baculoviral IAP repeat-containing protein 3, BIR3 (BIRC3, Homo sapiens, UniProt Q13489)
VIM-2: Metallo-beta-lactamase VIM-2 (VIM-2, Escherichia coli, UniProt Q5U7L7)
Beta-lactamase CTX-M-27: Beta-lactamase CTX-M-27 (Escherichia coli, UniProt Q840M4)
BIRC2 BIR3: Baculoviral IAP repeat-containing protein 2, BIR3 (BIRC2, Homo sapiens, UniProt Q13490)
CA6: Carbonic anhydrase 6 (CA6, Homo sapiens, UniProt P23280)
CASP7: Caspase-7 (CASP7, Homo sapiens, UniProt P55210)
Alpha-galactosidase: Alpha-galactosidase (Coffea arabica, UniProt Q42656)

CN[C@@H](C)C(=O)N[C@H]1CN(C(=O)Cc2ccccc2)CC[C@H]2CC[C@@H](C(=O)NCc3ccccc3F)N2C1=O has a Ki of 0.0257 µM (BIRC3 BIR3; ligand displacement, FP).
The Ki of O=C(Cc1ccccc1)Nc1ccccc1NC(=O)Cc1ccccc1 is reported as 2.21 µM (PPXII (Nicotiana tabacum, UniProt O24164); enzyme activity, inhibitor, fluorescence).
COC(=O)C(CS)N1C(=O)c2cccc3c(N(C)C)ccc(c23)C1=O (stereo not shown) has a Ki of 0.1 ± 0.02 µM (VIM-2; enzyme activity, inhibitor; Km 8 µM, together with: chromacef 25 µM).
The Ki of C[C@@H]1O[C@@H](OCc2cc(O)c3c(c2)[C@H]([C@@H]2O[C@H](CO)[C@@H](O)[C@H](O)[C@H]2O)c2cccc(O)c2C3=O)[C@H](O)[C@H](O)[C@H]1O is reported as 77.3 µM (IDO1 (Homo sapiens, UniProt P14902); uncompetitive inhibitor, Lineweaver-Burk plot).
The Ki of O=C(O)c1ccc(OCCCCCCCCCCOc2ccc(C(=O)O)cc2)cc1 is reported as 8.8 ± 2.6 µM (Dihydrofolate reductase type 2 (Escherichia coli, UniProt P00383); enzyme activity, inhibitor; pH 7).
With CCN(CC)c1ccc(CNC(=O)[C@@H]2CC[C@@H]3CCN(C(=O)Cc4ccccc4)C[C@H](NC(=O)[C@H](C)NC)C(=O)N32)cc1 the Ki was 0.255 µM (BIRC3 BIR3; ligand displacement, FP).
CC(=O)N[C@@H](CCCNC(=N)N)C(=O)N[C@@H](CCCCN)C(=O)N[C@@H](CCCCN)C(=O)N[C@@H](Cc1ccc(O)cc1)C(=O)N[C@@H](CCCCN)C(=O)N[C@@H](Cc1ccccc1)C(=O)N[C@@H](CC(N)=O)C(=O)N[C@@H](CCC(=O)O)C(=O)N[C@@H](CC(=O)O)C(=O)N[C@H](C(=O)N[C@@H](CCC(=O)O)C(=O)N[C@@H](CCCNC(=N)N)C(=O)N[C@@H](CCCNC(=N)N)C(=O)N[C@@H](CCCNC(=N)N)C(=O)N[C@@H](Cc1ccccc1)C(=O)N[C@@H](CC(C)C)C(N)=O)[C@@H](C)O has a Ki of 178 µM (EEF2K (Homo sapiens, UniProt O00418); enzyme activity, inhibitor, radiometric).
CN[C@@H](C)C(=O)N[C@H]1CN(C(=O)Cc2ccccc2)CC[C@H]2CC[C@@H](C(=O)NCc3cccc(Br)c3)N2C1=O gave a Ki of 0.0437 µM (BIRC3 BIR3; ligand displacement, FP).
With C[C@H]1CN(C(=O)c2cn(-c3ccnc(N)n3)c3cc(C#CC4(O)CCCCC4)ccc23)CCN1 the Ki was 0.0102 µM (PAK4 (Homo sapiens, UniProt O96013); cell-free assay, inhibitor, TR-FRET).
Oc1cc(O)c2c(c1)O[C@H](c1ccc(O)c(O)c1)[C@@H](O)[C@@H]2c1c(O)cc(O)c2c1O[C@H](c1ccc(O)c(O)c1)[C@H](O)C2 gave a Ki of 30.5 µM (PPO3 (Agaricus bisporus, UniProt C7FF04); enzyme activity, inhibitor, absorbance).
COCCOc1cc2ncnc(Nc3cccc(-c4cn(Cc5ccc(C(=O)Nc6cccc(S(N)(=O)=O)c6)cc5)nn4)c3)c2cc1OCCOC has a Ki of 0.107 µM (CA5A (Homo sapiens, UniProt P35218); enzyme activity, inhibitor, stopped-flow).
With O=C(Nc1cccc(-c2nn[nH]n2)c1)c1cc(-c2cc[nH]n2)cc(C(F)(F)F)c1 the Ki was 1.69 µM (Beta-lactamase CTX-M-27; enzyme activity, inhibitor, absorbance; pH 7).
CCc1ccc(CNC(=O)[C@@H]2CC[C@@H]3CCN(C(=O)Cc4ccccc4)C[C@H](NC(=O)[C@H](C)NC)C(=O)N32)cc1 gave a Ki of 0.0149 µM (BIRC2 BIR3; ligand displacement, FP).
COCCOc1cc2ncnc(Nc3cccc(-c4cn(CC(=O)Nc5ccc(S(N)(=O)=O)cc5)nn4)c3)c2cc1OCCOC gave a Ki of 0.0397 µM (CA6; enzyme activity, inhibitor, stopped-flow).
For O[C@@H]1[C@H](O)[C@@H](CNC(=S)Nc2ccccc2)N2CCC[C@@H](O)[C@H]12, the Ki was 0.2 µM (Alpha-mannosidase 2 (Homo sapiens, UniProt Q16706); inhibitor, fluorogenic; together with: 4-methylumbelliferyl α-mannoside).
CN[C@@H](C)C(=O)N[C@H]1CN(C(=O)Cc2ccccc2)CC[C@H]2CC[C@@H](C(=O)NCc3ccccc3Br)N2C1=O gave a Ki of 0.0581 µM (BIRC3 BIR3; ligand displacement, FP).
The Ki of O=c1ccn([C@@H]2O[C@H](COP(=O)(O)OP(=O)(O)O[C@H]3OC[C@@H](O)[C@H](O)[C@H]3O)[C@@H](O)[C@H]2O)c(=O)[nH]1 is reported as 0.42 µM (UGDH (Homo sapiens, UniProt O60701); enzyme activity, inhibitor, absorbance).
COCCOc1cc2ncnc(Nc3cccc(-c4cn(-c5ccccc5S(N)(=O)=O)nn4)c3)c2cc1OCCOC gave a Ki of 0.0601 µM (CA6; enzyme activity, inhibitor, stopped-flow).
For O=C(c1ccc(F)cc1)C1CCN(C2Cc3c(O)cccc3CC2O)CC1 (racemic), the Ki was 1.85 ± 0.408 µM (sigma-2 receptor; radioligand binding; together with: [3H]DTG).
The Ki of O=C(Nc1cccc(-c2nn[nH]n2)c1)c1cc(-c2ncc[nH]2)cc(C(F)(F)F)c1 is reported as 4.04 µM (Beta-lactamase CTX-M-27; enzyme activity, inhibitor, absorbance; pH 7).
For COc1ccc(C(=O)Nc2c(-c3cccs3)nc3ccccn23)cc1, the Ki was greater than 10 µM (biogenic amine receptors and transporters; binding; NIMH-PDSP panel).
CN[C@@H](C)C(=O)N[C@H]1CN(C(=O)Cc2ccccc2)CC[C@H]2CC[C@@H](C(=O)NCc3ccc(C(N)=O)cc3)N2C1=O gave a Ki of 0.539 µM (BIRC3 BIR3; ligand displacement, FP).
O=C(Nc1cccc(-c2nn[nH]n2)c1)c1cc(-c2cccnc2)cc(C(F)(F)F)c1 has a Ki of 2.65 µM (Beta-lactamase CTX-M-27; enzyme activity, inhibitor, absorbance; pH 7).
The Ki of CC(O)[C@H](NC(=O)/C=C/c1ccc(O)c(O)c1)C(=O)NCCCOc1c(-c2ccc(O)c(O)c2)oc2cc(O)cc(O)c2c1=O (stereo partly shown) is reported as 50 ± 10 µM (Pancreatic alpha-amylase (Homo sapiens, UniProt P04746); inhibitor; pH 7).
The Ki of CC[C@H](C)[C@H](NC(C)=O)C(=O)N[C@H](C(=O)N[C@H](C(=O)N[C@@H](CCCCNC(C)=O)C(=O)N[C@H](C=O)CC(=O)O)C(C)C)[C@@H](C)O is reported as 0.224 µM (CASP7; enzyme activity, inhibitor, fluorescence; pH 7).
The Ki of O=C(Nc1cccc(-c2nn[nH]n2)c1)c1cc(-n2cnnn2)cc(C(F)(F)F)c1 is reported as 5.3 µM (Beta-lactamase CTX-M-27; enzyme activity, inhibitor, absorbance; pH 7).
For CN[C@@H](C)C(=O)N[C@H]1CN(C(=O)Cc2ccccc2)CC[C@H]2CC[C@@H](C(=O)NCc3ccc(C(F)(F)F)cc3)N2C1=O, the Ki was 0.0088 µM (BIRC2 BIR3; ligand displacement, FP).
CC(C)CN(NC(=O)[C@H](CCCNC(=N)N)NC(=O)[C@H](Cc1ccc(O)cc1)NC(=O)CCCCCCC(=O)N[C@@H](Cc1ccc(O)cc1)C(=O)N[C@@H](CCCNC(=N)N)C(=O)NN(CC(C)C)C(=O)N[C@@H](CCCNC(=N)N)C(=O)N[C@@H](Cc1ccc(O)cc1)C(N)=O)C(=O)N[C@@H](CCCNC(=N)N)C(=O)N[C@@H](Cc1ccc(O)cc1)C(N)=O has a Ki of 2.7 µM (NPY5R (Homo sapiens, UniProt Q15761); ligand displacement, radioligand).
The Ki of CN(C)c1ccc2c3c(cccc13)C(=O)N(C(CS)C(=O)O)C2=O (stereo not shown) is reported as 0.17 ± 0.01 µM (VIM-2; enzyme activity, inhibitor; Km 8 µM, together with: chromacef 25 µM).
The Ki of Cc1cc(N)nc(C[C@@H]2CNC[C@@H]2OCCCCOc2cc(F)cc(Cl)c2)c1 is reported as 4.4 µM (NOS3 (Bos taurus, UniProt P29473); enzyme activity, inhibitor; pH 7.4).
CN[C@@H](C)C(=O)N[C@H]1CN(C(=O)Cc2ccccc2)CC[C@H]2CC[C@@H](C(=O)NCc3ccc(-c4ccccc4)cc3)N2C1=O gave a Ki of 0.172 µM (BIRC3 BIR3; ligand displacement, FP).
CCCCNC(=S)N1[C@H](CCC)[C@H](O)[C@@H](O)[C@H](O)[C@H]1CO has a Ki of greater than 2000 µM (Alpha-galactosidase; enzyme activity, competitive inhibitor; green coffee bean enzyme, optimal pH, together with: p-nitrophenyl glycopyranoside).
CC(C)C[C@H](NC(=O)N(CCCNC(=N)N)NC(=O)[C@H](Cc1ccc(O)cc1)NC(=O)CCCCCCC(=O)N[C@@H](Cc1ccc(O)cc1)C(=O)NN(CCCNC(=N)N)C(=O)N[C@@H](CC(C)C)C(=O)N[C@@H](CCCNC(=N)N)C(=O)N[C@@H](Cc1ccc(O)cc1)C(N)=O)C(=O)N[C@@H](CCCNC(=N)N)C(=O)N[C@@H](Cc1ccc(O)cc1)C(N)=O has a Ki of 0.053 µM (NPY1R (Homo sapiens, UniProt P25929); ligand displacement, radioligand).
CCCCN1[C@H](CCC)[C@H](O)[C@@H](O)[C@H](O)[C@H]1CO gave a Ki of greater than 2000 µM (Alpha-galactosidase; enzyme activity, competitive inhibitor; green coffee bean enzyme, optimal pH, together with: p-nitrophenyl glycopyranoside).
With CC(=O)N[C@@H](CCC(N)=O)C(=O)N[C@@H](CC(=O)O)C(=O)N[C@H](C(=O)N[C@@H](CCCNC(=N)N)C(=O)N[C@H](C=O)CC(=O)O)[C@@H](C)O the Ki was 0.282 µM (CASP7; enzyme activity, inhibitor, fluorescence; pH 7).
CCCCCCCC[C@@H]1[C@H](O)[C@@H](O)[C@H](O)[C@@H](CO)N1C(=S)NCCCC gave a Ki of 508 µM (Alpha-galactosidase; enzyme activity, inhibitor, absorbance).
With COCCOc1cc2ncnc(Nc3cccc(-c4cn([C@H]5C[C@H](n6cc(C)c(=O)[nH]c6=O)O[C@@H]5CO)nn4)c3)c2cc1OCCOC the Ki was 0.103 µM (CA6; enzyme activity, inhibitor, stopped-flow).

Some of these lines once more:
CC(C)CN(NC(=O)[C@H](CCCNC(=N)N)NC(=O)[C@H](Cc1ccc(O)cc1)NC(=O)CCCCCCC(=O)N[C@@H](Cc1ccc(O)cc1)C(=O)N[C@@H](CCCNC(=N)N)C(=O)NN(CC(C)C)C(=O)N[C@@H](CCCNC(=N)N)C(=O)N[C@@H](Cc1ccc(O)cc1)C(N)=O)C(=O)N[C@@H](CCCNC(=N)N)C(=O)N[C@@H](Cc1ccc(O)cc1)C(N)=O has a Ki of 2.7 µM (NPY5R (Homo sapiens, UniProt Q15761); ligand displacement, radioligand).
The Ki of CN(C)c1ccc2c3c(cccc13)C(=O)N(C(CS)C(=O)O)C2=O (stereo not shown) is reported as 0.17 ± 0.01 µM (VIM-2; enzyme activity, inhibitor; Km 8 µM, together with: chromacef 25 µM).
The Ki of Cc1cc(N)nc(C[C@@H]2CNC[C@@H]2OCCCCOc2cc(F)cc(Cl)c2)c1 is reported as 4.4 µM (NOS3 (Bos taurus, UniProt P29473); enzyme activity, inhibitor; pH 7.4).
